# Assay results of several laboratories.
# A part holds a random share of what one study measured.

# Set 1 — technique: protein binding microarray; molecule type: double-stranded DNA, one strand shown; matrix: in vitro; tested at: not given; relative to: not given; reading: higher = stronger binding
# Target: Histone acetyltransferase KAT6A, winged helix 1, GST fusion (KAT6A, Homo sapiens, UniProt Q92794, residues 1-85)
# Notes: 8-mer, flanks averaged, mean of 2 arrays, mostly near background
# Residues (chain): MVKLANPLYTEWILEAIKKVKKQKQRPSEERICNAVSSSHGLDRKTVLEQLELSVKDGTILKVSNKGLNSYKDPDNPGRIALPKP
Strand,E-score
CAGTACAA,-0.2
AGAAGATC,-0.145
ATATGCCA,-0.126
ACATAATA,-0.126
CCTAATTA,-0.127
TAGCCATA,-0.0598
ATATGTGA,-0.0885
CCCTGATA,-0.186
AGTACGTC,-0.0354
TGCGGAAA,0.197
AAACTCGA,-0.187
AGGATATA,-0.221
AAGTACTG,-0.11
AGACAAAG,-0.165
CTAGACGA,0.052
GGTGATAC,-0.021
AATAGCGC,0.24
AATCGTGT,-0.0577
AATAGAAG,-0.148
GCGCCCAC,0.228
CGACGATC,-0.00234
ACGAAGAG,0.0158
AAGTCGAC,-0.223

# Set 2 — technique: RNA Bind-n-Seq; molecule type: RNA; matrix: in vitro; tested at: 365 nM; relative to: no-protein control; reading: higher = stronger binding
# Target: RNA binding protein fox-1 homolog 2, RRM domain, GST-SBP tag (RBFOX2, Homo sapiens, UniProt O43251-10, residues 100-194)
# Notes: natural RNA segment, single round, ends assumed
# Constant ends, left off below: GGGAGUUCUACAGUCCGACGAUC … UGGAAUUCUCGGGUGCCAA
# Residues (chain): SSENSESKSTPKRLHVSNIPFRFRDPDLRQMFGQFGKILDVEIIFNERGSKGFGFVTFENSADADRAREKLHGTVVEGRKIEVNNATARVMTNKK
Strand,RBNS enrichment (R)
GUGAGUUUUCACAUCCCUGCAUCUUCUGCUUUGCAAUGAAGGUUCUGUCGGUGAGGCCUUCUCUAAUGCAGUAUUCAUGAUGUUCUCAUUCAUGUUCUCAUUCAUGAUGU,0.494
UCCCAUCCUGGGGCAGCACUCCCCAGAGCUGUGCCAGCAGGGGGGCUGUGCCAACCUGUUCUUAGAGUGUAGCUGUAAGGGCAGUGCCCAUGUGUACAUUCUGCCUAGAG,0.177
AGACUUGUGUGAAUGUACAAAGGUUUGCAUUGUAGCUGUUAGAACAGCACAGCAGGGAGUACACGAACUGAUAGAGACCUGUGCUCAGCAGCCAGGUUCUUCAGGUGCUU,0.384
GUUUGUGGUAAGGUAGCCACACCUGGAGCUCACGUGUAACCUGGAGCGCUGUGCUACCAGUAGCUUUGGGGUUUUGGAAGCAGACACACCAAAGCCGAGCAUCAUAGAGA,0.316
AGAAGACACUGUGCACCAGCUGUGCUAUGUUUGAAGCUGAGGUGGCCACAGACAGCACAAGAUGUUCACACUAAAGAGAGAGAAGGUGGCUUUUUAUAUGUUAUGUUUUA,2.68
GUUUUUCUCUACUUCUGAAAUGAGUUGUUCACCAGUAUUAUCUUCUCCCAUCCUAAGCUGUUCAUUUUAAGAUGUGGCAGAGUAAAGUGGUUUUUCCUAACUUACUUGCU,0.235
UGAGGCCUGGUUCUGGAUCUGGGACCAUUGCUGGAUGACUUGAAUCUUAGUGAAGUCCUUUGUUGGGCUAUGGGCUAGCAUGUGGCUCACUGCUGUAAUGCUAGUAUUUC,0.756
AUCUGAGGUCCCAGGAGGAGGCUCAGGAUUCCCUGGUGGGUCUGGAUGUCCCUUGGGUCAGAGGUCAUCCUUUCCCUCUCUCCUGUUAUCAGAGGCAAAGGAAGGUCUAC,0.438
AUUGCAUCAUCACUGACCUGUUAGAAUUUAACCCGGAAACAUCGCAAUAGCAUUUAGGGAUGCACGCACAGUGGUAAUUUAUUACUCAGUUCCGGUUAUGUUUUUCUCCA,0.522
ACUUAGGAUAUUUUCAUUUAUGAUGGGUUUAUCAGGAAGUAACCCCAUGGUAAGUUGAGGCAUAUCUGUAUAUAUUUAAACCUAAUUAAUUCUUGAGCUGAAAAUAAAUA,0.493
UGGAUCAGGGUAGCUACAAGUGGCCGGGCCUUGCCUUUGGGAUUCUACCUGUUCCUAAUUUGGUGUGGGGUGCGGGGUCCCUGGCCCCUUUUCCACACUCCUCCUCCGAC,0.272
UGGCCGUCAGCACCCCUCCUUUCCCCAAGGUGAAAUGGAGGGUGCUGUGGGGGCCUGCCCACUCCAUGGCAGUGCCCUGAAGGAGUCAGACUACCAUGGCAUCGCAGGCC,0.252

# Set 3 — technique: competition protein-binding microarray; molecule type: double-stranded DNA, one strand shown; matrix: in vitro; tested at: 2 µM; together with: Cbf1 competitor, 0.05 µM; reading: higher = stronger binding; constant ends, left off below: … GTCTTGATTCGCTTGACGCTGCTG
# Target: Phosphate system positive regulatory protein PHO4, full length, GST-tagged (PHO4, Saccharomyces cerevisiae, UniProt P07270, residues 1-312)
# Notes: whole 60-bp probe, lowest competitor level
# Residues (chain): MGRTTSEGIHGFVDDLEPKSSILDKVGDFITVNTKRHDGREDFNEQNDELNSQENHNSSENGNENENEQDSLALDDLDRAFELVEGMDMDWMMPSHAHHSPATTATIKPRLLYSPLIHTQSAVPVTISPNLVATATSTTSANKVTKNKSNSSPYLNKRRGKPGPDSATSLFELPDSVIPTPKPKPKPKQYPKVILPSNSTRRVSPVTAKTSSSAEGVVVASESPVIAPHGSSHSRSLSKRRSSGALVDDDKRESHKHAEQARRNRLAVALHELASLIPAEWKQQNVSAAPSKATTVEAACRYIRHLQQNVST
Strand,fluorescence intensity [a.u.]
TCCGATGGTACTCATGTAGCTGCCTCATACGAGACC,4330
GCAATAATGAACCGTCACATGCAAGCCCCATACGCC,8470
AAGGTAAGCTATCACCACGTGTTGGTGATTTAAGTT,13600
GTCTTGTCTCATTTTCACGTGGGGTTCCCCACTTCA,14500
TGCGCAACAACTTGTCACCATACTTTATGTCTAGAA,3920
CTTTCCCGATCTTGTCAGGTGGGTGTAGCACATTTG,5900
AAAAAAAAATGTGAAAACGTGATGGCATTTTTTACA,15000
GTCTTCTCCAAAACATTCGTGACGAATAGTCCTGCT,5510
CTATCCAGCCACTCCCATGTGATAACGGTCGAAGTG,9600
TGACAGTAATCTTTTCACGTGTGGATGGACAGACTC,12100
AAAAAACTACCCCATCACGTGAAATTTATTAGAAAA,11300
CGGGGTTAAGTTTGCAGTGTGGGTGGCTTGCAGCAG,6090
GTCTTGTCTCATTGCGCGGTGGGTGTCCCCACTTCA,4800
TACGTATATTGCCTTCACATGCCGAGAAAGCCGACA,6310
TTAAAATGGTACTGGCACGTGATGGTAGTGGCTCAA,15500
AAATTACTAAGTTGTCACTTAACTTACCCCGTATGA,3080
CTTCTGTAAATTTTTCACGTGGTATGACGCGCCCCG,14800
CGTCCTAGTGATTGTCGGGTGGGTGCCATGAGGAAG,6320
CAAATTTGCCAGCGTCACAATGTCGTTTGCCTCTTG,3610
CATACCCAACCTTGTGAGGTGGGTGAAGATATTTGT,4310
TCTCTTTCGAAAATGCTCGTGTAGCTCAGTGGTTAG,7130
TAATGGCGGGTCAGTGACATGCGCGGACAAAATAAC,6600
CGGGGTTAAGTTTGCTCAGTGGGTGGCTTGCAGCAG,3960
GCAGAGTGATAGCGTCACAGGAAATAGCGCAACCTT,3040
ATATGTGTGCGACGACACATGATAATATGGCATGCA,9300

# Set 4 — technique: universal PBM; molecule type: double-stranded DNA, one strand shown; matrix: in vitro; tested at: 600 nM; reading: higher = stronger binding
# Target: Sal-like protein 4, full length isoform A (SALL4, Homo sapiens, UniProt Q9UJQ4, residues 1-1053)
# UniProt Q9UJQ4, sequence (whole entry, looked up): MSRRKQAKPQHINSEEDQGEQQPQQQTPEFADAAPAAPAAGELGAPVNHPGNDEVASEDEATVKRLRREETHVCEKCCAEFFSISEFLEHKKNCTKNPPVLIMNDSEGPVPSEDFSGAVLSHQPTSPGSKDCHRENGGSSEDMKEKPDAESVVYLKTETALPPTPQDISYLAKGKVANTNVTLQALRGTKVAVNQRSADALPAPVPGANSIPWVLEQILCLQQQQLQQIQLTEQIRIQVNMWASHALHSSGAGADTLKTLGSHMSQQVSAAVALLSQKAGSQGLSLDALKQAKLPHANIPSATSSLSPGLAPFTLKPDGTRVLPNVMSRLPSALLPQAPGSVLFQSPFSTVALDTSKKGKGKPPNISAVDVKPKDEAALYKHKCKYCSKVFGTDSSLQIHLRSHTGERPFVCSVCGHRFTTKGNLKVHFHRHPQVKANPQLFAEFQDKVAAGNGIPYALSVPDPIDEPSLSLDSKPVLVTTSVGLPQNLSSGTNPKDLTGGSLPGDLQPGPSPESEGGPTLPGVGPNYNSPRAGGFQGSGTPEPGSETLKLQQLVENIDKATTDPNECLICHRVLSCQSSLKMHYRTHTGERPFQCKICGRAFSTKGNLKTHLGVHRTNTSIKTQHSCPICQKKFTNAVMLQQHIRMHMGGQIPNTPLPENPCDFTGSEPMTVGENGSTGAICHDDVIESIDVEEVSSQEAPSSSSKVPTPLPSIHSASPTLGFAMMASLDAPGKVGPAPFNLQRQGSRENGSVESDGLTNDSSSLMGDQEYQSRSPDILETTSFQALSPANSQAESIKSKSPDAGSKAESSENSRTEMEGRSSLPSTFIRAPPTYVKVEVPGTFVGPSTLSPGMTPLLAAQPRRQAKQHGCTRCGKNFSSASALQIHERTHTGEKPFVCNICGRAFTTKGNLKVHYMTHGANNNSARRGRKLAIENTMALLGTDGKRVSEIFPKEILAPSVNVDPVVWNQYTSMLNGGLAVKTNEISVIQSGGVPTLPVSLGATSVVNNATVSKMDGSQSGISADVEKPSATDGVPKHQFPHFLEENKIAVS
# Notes: 8-mer, flanks averaged, mean of replicates
Strand,E-score
ACCTCCCA,-0.267
ATAGCTGC,0.136
AAAGAGGC,-0.17
CTGGTCTA,-0.0674
CGGCACGA,-0.278
CACTTCGA,-0.0475
CGCCAAGC,-0.238
CGGCGAAC,-0.122
AGAGCTCT,-0.357
CGAAGCCG,-0.309
AGAACGGG,-0.0832
AGGAACTG,-0.0418
CCTGAACA,0.0503
CCATGCGC,-0.226
ATTAGAGG,0.0209
AGTGATAT,0.189
AGAGTGGG,-0.101
ATTCCAGA,0.14
TCCAGTAA,0.0899
ACGCAGGG,-0.191
ATCCTACC,-0.188
GCTGGCAC,-0.228
CCGGCAAC,-0.25
AGCGGGAG,-0.19
CTCATGAC,-0.028
